# Assay results from different studies.
# Every numbered part comes from another study and shows a few of its results, in no order. Substitutions count along the parent as printed.

# Sample 1 — target: CCNE2, cyclin fold, Cln2 fusion (human); method: yeast growth competition, sequencing; sample: yeast; notes: strong parent motif; reference: not given; reading: higher = stronger binding
# Parent: E2F1 docking peptide (human); PPVKRRLDLETDH; partner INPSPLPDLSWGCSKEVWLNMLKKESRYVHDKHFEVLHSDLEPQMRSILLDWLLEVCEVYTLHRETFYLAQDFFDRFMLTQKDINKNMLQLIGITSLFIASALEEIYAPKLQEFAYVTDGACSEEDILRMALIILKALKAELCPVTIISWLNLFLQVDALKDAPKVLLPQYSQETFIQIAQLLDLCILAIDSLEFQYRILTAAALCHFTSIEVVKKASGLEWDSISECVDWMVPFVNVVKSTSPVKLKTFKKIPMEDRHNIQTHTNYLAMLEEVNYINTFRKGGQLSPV
Substitution,normalised enrichment score
PPVKRSLDLETDH [R6S],-0.0813
PPVKRRLQLETDH [D8Q],1.53
PPVWRRLDLETDH [K4W],-0.0506
PPVKRRLDLEIDH [T11I],2
PPVKARLDLETDH [R5A],-0.0365
PPVKRRLDLETDC [H13C],1.34
PPVKRRLDLEGDH [T11G],1.15
PPIKRRLDLETDH [V3I],0.126
PPVKRDLDLETDH [R6D],-0.315
PPVKRRLKLETDH [D8K],1.49
PPVKRKLDLETDH [R6K],0.574
PPVKRRCDLETDH [L7C],0.184
PPVKRRGDLETDH [L7G],0.0376
PPVKRRLWLETDH [D8W],3.5
MPVKRRLDLETDH [P1M],2.27
PPVKRRLDLETSH [D12S],2.01
PPQKRRLDLETDH [V3Q],0.816
PPVKRRLDLECDH [T11C],1.42

# Sample 2 — method: protein-binding microarray; molecule type: double-stranded DNA, one strand shown; sample: in vitro; tested at: 940 nM top; notes: 60-bp whole probe; added: salmon DNA 0.4 mg/ml; reference: random background probes; reading: higher = stronger binding; constant ends, left off below: GCCTAGCAC … GTCTTGATTCGCTTGACGCTGCTG
# Target: Interferon regulatory factor 5, full length, phosphomimetic (IRF5, Homo sapiens, UniProt Q13568-2, residues 1-514, S451D/S453D/S456D/S462D)
Strand,fitted relative affinity [z-score]
TTAGGTCTCGAACTGGGTTAGTGCTAG,0.608
GACGGTTTCGGACTGGGGAGGTGCTAG,6.35
GACGGACGGGGACTGGGGACGTGCTAG,-0.347
GCGGGAGAAAGCAAGCCCAGGTGCTAG,-0.74
TTAGATCTCCGTCTCGATTAGTGCTAG,1.67
TTAGATATCGGGTATCGATTAGTGCTA,2.91
TTAGGTATCGATACTGGGTTAGTGCTA,9.56
TTAGAACTGAGTCTCGATGAGTGCTAG,1.41
GACGGACTGCTTTTGCTGACGTGCTAG,-0.235
CACTCTTGCTTTTTAGATCGGTGCTAG,1.03
GAAGAACTGAGTCTCGAGACGTGCTAG,0.5
TTAGGCCTGGGGACTGGGTTAGTGCTA,-0.473
TTAGGAATCGGGACTGGGTTAGTGCTA,-0.0888
GACGGACTGCTTATCCTGCCGTGCTAG,-0.425
TTAGGTCTCGGACGGGGTTAGTGCTAG,1.41
CAGCCTCTACCTCCTGGGCTCGTGCTA,0.0703
TTAGAAATTTCTTTCTAATTGTGCTAG,0.0909
GACTATATCGGGTTTCGAGACGTGCTA,1.75
GTAGATTTCGGGTATCGATTAGTGCTA,3.75
GACGGTTTCCGTATCGGGACGTGCTAG,2.44
GACGACCTGGGGACTGGAGACGTGCTA,-0.256
CCCAAGATTGCCGTTTCCTAAGTGCTA,0.321
TTAGGTTTCGAACTGGGTTAGTGCTAG,5.47
AACGAACTGAGACTGGAGACGTGCTAG,-0.371
TCATTCCTCTTTTTTGTACTGTGCTAG,1.9

# Sample 3 — method: DHFR PCA, deep sequencing; sample: yeast; added: (+)-ABA 1.4 µM; reference: wild-type fitted maximum; reading: higher = stronger binding
# Target: ABI1, truncated, D143A, DHFR fusion (Arabidopsis thaliana)
# Notes: methotrexate growth selection, single substitutions
# Parent: PYL1, truncated, DHFR fusion (Arabidopsis thaliana); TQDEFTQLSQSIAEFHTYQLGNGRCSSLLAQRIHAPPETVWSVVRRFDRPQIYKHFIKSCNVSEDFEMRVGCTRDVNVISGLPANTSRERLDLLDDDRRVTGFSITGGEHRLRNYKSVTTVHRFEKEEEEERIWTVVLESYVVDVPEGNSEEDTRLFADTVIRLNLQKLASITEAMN; partner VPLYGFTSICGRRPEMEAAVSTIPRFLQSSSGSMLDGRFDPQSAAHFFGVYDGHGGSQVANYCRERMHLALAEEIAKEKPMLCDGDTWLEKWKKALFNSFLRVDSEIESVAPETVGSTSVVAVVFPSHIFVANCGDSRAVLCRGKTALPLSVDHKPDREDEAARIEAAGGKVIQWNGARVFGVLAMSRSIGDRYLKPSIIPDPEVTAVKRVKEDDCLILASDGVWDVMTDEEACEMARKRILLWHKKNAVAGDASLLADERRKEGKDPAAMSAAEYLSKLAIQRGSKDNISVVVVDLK
Substitution,relative binding score
T160G,0.133%
L28S,4.69%
Y53G,-5.36%
L138K,-9.79%
R88D,-10.1%
R69S,43.7%
S104H,-5.53%
L112K,2.44%
R123P,59.1%
R32D,-3.87%
S9L,42.4%
V76N,-6.38%
V142L,1.04%
W41K,-17.1%
E64R,47.9%
Q19F,20.3%
T39Y,20.6%
Y53N,-4.22%
C72K,0.675%
F47E,-3.19%
P37R,-1.4%
L169M,-2.84%
I105F,-6.79%
T101W,-10.6%

# Sample 4 — method: RNA Bind-n-Seq; molecule type: RNA; sample: in vitro; tested at: 200 nM; notes: whole 134-nt RNA, ends assumed; added: 150 mM LiCl; reference: input library; reading: higher = stronger binding; each molecule: 7-deaza-guanosine replaces G
# Target: Ras GTPase-activating protein-binding protein 1, full length (G3BP1, Homo sapiens, UniProt Q13283)
# UniProt Q13283, sequence (whole entry, looked up): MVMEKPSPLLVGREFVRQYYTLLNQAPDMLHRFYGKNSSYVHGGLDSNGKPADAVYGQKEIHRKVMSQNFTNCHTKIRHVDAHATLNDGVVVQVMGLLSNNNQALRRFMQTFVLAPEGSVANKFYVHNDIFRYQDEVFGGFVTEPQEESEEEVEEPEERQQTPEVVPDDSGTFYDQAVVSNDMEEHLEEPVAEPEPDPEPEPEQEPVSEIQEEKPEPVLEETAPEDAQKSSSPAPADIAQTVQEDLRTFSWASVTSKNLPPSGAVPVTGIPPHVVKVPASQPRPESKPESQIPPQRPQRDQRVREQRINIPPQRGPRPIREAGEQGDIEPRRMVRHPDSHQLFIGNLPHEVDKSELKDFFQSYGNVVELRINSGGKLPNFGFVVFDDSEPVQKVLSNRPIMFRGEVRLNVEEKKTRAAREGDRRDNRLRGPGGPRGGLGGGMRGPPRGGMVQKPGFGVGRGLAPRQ
# Constant ends, left off below: GGGAGUUCUACAGUCCGACGAUC … UGGAAUUCUCGGGUGUCAAGG
Strand,log2 enrichment
UUUUGCAUUUAGGGUUUUAACCAAGAAGAUCUGGAAGAAGAAAAAGGUGAAACACAGGUAAAAGAAGCAGAAGAUUCAGAUUCUGAUGAU,-3.29
GUCCUGUGCUACACAUCGUAUGUACCGAAUCGGAAAAAGGAAAAAGGGGAAAAAGGGGAAAGUAUUAUGUUACGCCGUUCGGAUCUGCAC,-0.0447
CACAGACAACACGCACCCACACAGACACAGAGGGAAGGGGUUGGGAUGGGGCCAGGGUGCACAGCAGGGCGGGGUAGGACCCCAGCCCCU,0.911
CUCAAGUCCUGUGCUACACAUCGUAUGUACCGAAUCGGGCCGGGCCGGCCGGGAAAGUAUUAUGUUACGCCGUUCGGAUCUGCACUUCCA,0.923
CUGUGCUACACAUCGUAUGUACCGAAUCGGGGAAAAAGGGGAAAAAGGGGUUUUUUUGGGGAAAGUAUUAUGUUACGCCGUUCGGAUCUG,-0.0416
AAGUCCUGUGCUACACAUCGUAUGUACCGAAUCGGAGGUUUUUUUGGAAAAAAAGGAAAGUAUUAUGUUACGCCGUUCGGAUCUGCACUU,-1.13
AGUCCUGUGCUACACAUCGUAUGUACCGAAUCGGGUUUUUUUGGGUUUUUGGGUGGGAAAGUAUUAUGUUACGCCGUUCGGAUCUGCACU,-0.459
UCCUGUGCUACACAUCGUAUGUACCGAAUCGGGAAAAAAAGGGAAAAAGGGAAAAAGGGAAAGUAUUAUGUUACGCCGUUCGGAUCUGCA,0.355
AAGUCCUGUGCUACACAUCGUAUGUACCGAAUCGGAAAAAGGAAAGGAAAAAAAGGAAAGUAUUAUGUUACGCCGUUCGGAUCUGCACUU,-0.464
UUGGGUCCAGACUGCGCCACAGCCUCUCGGGAGACGUGGGCCCUCGGAACCUUUUUAGUGCCGGACUCCGGGCCGCAGGCAGUCCCGCGG,-1.78
UUUUCAAGGGCCGCUUGAAGAUGCCAUUGAAGAUGAGGAAGAAGAAUGUCCAUCAGAGGAAACAGACAUCAUCUCCAAAGGAGACUUUCC,-2.37

# Sample 5 — method: universal PBM; molecule type: double-stranded DNA, one strand shown; sample: in vitro; tested at: not given; reading: higher = stronger binding
# Target: Sal-like protein 4, full length isoform B (SALL4, Homo sapiens, UniProt Q9UJQ4-2, residues 1-616)
# Notes: 8-mer, flanks averaged, mean of replicates
# Target sequence (chain): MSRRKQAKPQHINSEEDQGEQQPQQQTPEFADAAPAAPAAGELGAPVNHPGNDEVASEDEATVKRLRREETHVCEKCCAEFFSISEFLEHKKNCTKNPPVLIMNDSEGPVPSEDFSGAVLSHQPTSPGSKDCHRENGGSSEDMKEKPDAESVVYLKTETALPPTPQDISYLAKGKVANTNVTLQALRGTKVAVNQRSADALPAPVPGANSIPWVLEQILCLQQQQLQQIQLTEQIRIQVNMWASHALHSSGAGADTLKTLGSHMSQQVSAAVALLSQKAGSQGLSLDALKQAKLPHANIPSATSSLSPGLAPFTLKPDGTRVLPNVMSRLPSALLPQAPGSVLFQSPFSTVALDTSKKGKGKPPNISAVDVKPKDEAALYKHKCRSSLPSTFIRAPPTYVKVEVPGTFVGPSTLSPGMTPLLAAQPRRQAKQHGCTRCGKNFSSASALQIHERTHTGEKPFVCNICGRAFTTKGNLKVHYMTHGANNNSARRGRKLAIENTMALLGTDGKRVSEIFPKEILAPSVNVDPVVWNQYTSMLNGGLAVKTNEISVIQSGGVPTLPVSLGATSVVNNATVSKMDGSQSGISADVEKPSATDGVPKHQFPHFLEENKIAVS
Strand,E-score
CACATTTA,0.288
GGTCCCCA,-0.386
CACCATTC,0.026
CGGCAGTA,-0.16
CTGGCACC,-0.183
AGACCGTG,-0.212
GAAGAGCA,-0.0141
CACCGCGC,-0.331
AGCAGTGA,-0.105
CCCGGGAG,-0.391
ATATCGAA,0.264
CCGGATCC,-0.176
ATCCAGCG,-0.0534
GGTGGAGA,-0.288
ACAGCTAG,-0.15
CACTACGA,0.0413
ACCCTTAT,0.17
CTATCCGA,-0.0078
CAGAGGTA,0.0186
CTAGGTTA,0.115
CCTCGCCA,-0.216
CCCAACCC,-0.0329
GCGTTTAA,0.177
GAAGCCTA,0.00341
AGAAGTAA,0.275

# Single results of other studies
Substance,target,test,system,setting,how to read,measurement,value
"PhoQ, residues 284 288 289 292 302 303 SSCCRF","PhoP, residues 12 14 15 18 19 NQFFI (Escherichia coli, UniProt P23836)","Sort-seq, item: YFP reporter",E. coli,"PhoQ-PhoP variant library, added: 10 µM Mg2+","reference: high Mg2+ state, higher = stronger signaling",fold induction,16.7

# Some of these lines once more (sample 4):
Strand,log2 enrichment
CACAGACAACACGCACCCACACAGACACAGAGGGAAGGGGUUGGGAUGGGGCCAGGGUGCACAGCAGGGCGGGGUAGGACCCCAGCCCCU,0.911
UUUUGCAUUUAGGGUUUUAACCAAGAAGAUCUGGAAGAAGAAAAAGGUGAAACACAGGUAAAAGAAGCAGAAGAUUCAGAUUCUGAUGAU,-3.29
UCCUGUGCUACACAUCGUAUGUACCGAAUCGGGAAAAAAAGGGAAAAAGGGAAAAAGGGAAAGUAUUAUGUUACGCCGUUCGGAUCUGCA,0.355
AAGUCCUGUGCUACACAUCGUAUGUACCGAAUCGGAGGUUUUUUUGGAAAAAAAGGAAAGUAUUAUGUUACGCCGUUCGGAUCUGCACUU,-1.13
GUCCUGUGCUACACAUCGUAUGUACCGAAUCGGAAAAAGGAAAAAGGGGAAAAAGGGGAAAGUAUUAUGUUACGCCGUUCGGAUCUGCAC,-0.0447
CUCAAGUCCUGUGCUACACAUCGUAUGUACCGAAUCGGGCCGGGCCGGCCGGGAAAGUAUUAUGUUACGCCGUUCGGAUCUGCACUUCCA,0.923
AAGUCCUGUGCUACACAUCGUAUGUACCGAAUCGGAAAAAGGAAAGGAAAAAAAGGAAAGUAUUAUGUUACGCCGUUCGGAUCUGCACUU,-0.464
UUUUCAAGGGCCGCUUGAAGAUGCCAUUGAAGAUGAGGAAGAAGAAUGUCCAUCAGAGGAAACAGACAUCAUCUCCAAAGGAGACUUUCC,-2.37
UUGGGUCCAGACUGCGCCACAGCCUCUCGGGAGACGUGGGCCCUCGGAACCUUUUUAGUGCCGGACUCCGGGCCGCAGGCAGUCCCGCGG,-1.78
AGUCCUGUGCUACACAUCGUAUGUACCGAAUCGGGUUUUUUUGGGUUUUUGGGUGGGAAAGUAUUAUGUUACGCCGUUCGGAUCUGCACU,-0.459
CUGUGCUACACAUCGUAUGUACCGAAUCGGGGAAAAAGGGGAAAAAGGGGUUUUUUUGGGGAAAGUAUUAUGUUACGCCGUUCGGAUCUG,-0.0416
